Assay results from different studies.
Parts stem from different laboratories: compare values within a part only.
Chain of UniProt P00519 (whole entry, unmodified, looked up): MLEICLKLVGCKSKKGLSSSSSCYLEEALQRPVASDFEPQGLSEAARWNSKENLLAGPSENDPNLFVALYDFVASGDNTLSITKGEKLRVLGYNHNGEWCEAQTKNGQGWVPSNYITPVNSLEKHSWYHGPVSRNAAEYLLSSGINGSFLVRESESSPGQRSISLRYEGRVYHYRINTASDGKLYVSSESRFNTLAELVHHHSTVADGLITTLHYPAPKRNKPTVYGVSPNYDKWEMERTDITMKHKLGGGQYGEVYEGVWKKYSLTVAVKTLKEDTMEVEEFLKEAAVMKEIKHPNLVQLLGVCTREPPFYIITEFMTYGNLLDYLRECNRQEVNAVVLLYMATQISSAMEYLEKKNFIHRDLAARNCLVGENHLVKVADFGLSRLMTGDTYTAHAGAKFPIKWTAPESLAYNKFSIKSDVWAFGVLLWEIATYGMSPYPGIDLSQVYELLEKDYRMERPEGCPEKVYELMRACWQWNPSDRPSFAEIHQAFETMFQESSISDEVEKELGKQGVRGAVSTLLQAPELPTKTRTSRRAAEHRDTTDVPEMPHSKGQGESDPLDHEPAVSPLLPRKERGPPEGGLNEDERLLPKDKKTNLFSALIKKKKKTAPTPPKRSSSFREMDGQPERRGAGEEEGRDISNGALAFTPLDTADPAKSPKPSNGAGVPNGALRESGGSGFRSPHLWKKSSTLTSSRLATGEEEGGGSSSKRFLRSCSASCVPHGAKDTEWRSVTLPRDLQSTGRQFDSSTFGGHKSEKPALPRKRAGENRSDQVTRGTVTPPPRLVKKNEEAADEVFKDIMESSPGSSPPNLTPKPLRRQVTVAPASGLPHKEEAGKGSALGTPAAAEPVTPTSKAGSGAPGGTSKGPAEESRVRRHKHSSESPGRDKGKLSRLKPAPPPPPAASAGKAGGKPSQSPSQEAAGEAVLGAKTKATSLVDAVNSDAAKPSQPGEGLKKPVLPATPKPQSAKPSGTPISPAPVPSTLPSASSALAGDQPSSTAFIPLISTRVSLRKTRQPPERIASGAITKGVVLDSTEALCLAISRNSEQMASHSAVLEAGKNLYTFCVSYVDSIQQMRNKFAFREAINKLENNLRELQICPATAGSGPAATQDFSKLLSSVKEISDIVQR
Chain of UniProt P11362 (whole entry, looked up): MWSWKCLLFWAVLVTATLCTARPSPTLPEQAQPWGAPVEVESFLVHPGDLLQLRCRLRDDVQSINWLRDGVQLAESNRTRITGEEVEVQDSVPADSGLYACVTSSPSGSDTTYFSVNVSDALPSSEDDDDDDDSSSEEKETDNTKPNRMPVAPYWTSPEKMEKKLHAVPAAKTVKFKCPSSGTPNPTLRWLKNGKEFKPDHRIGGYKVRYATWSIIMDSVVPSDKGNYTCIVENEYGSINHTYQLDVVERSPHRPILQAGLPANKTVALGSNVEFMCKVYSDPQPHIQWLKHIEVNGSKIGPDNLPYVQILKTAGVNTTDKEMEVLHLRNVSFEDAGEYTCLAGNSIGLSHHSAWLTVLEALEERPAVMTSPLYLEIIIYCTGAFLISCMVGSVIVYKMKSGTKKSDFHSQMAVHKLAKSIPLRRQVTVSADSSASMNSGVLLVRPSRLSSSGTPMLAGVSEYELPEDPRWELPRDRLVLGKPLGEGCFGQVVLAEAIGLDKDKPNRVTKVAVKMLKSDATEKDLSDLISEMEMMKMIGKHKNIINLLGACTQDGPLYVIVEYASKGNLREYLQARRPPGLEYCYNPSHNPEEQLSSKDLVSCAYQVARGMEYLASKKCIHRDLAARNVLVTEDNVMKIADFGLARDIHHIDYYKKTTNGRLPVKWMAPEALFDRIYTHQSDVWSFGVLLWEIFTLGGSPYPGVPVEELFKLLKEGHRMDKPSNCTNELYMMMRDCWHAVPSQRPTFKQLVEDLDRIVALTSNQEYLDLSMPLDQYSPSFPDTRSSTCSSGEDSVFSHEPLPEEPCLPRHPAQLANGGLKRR
Chain of UniProt Q02763 (whole entry, looked up): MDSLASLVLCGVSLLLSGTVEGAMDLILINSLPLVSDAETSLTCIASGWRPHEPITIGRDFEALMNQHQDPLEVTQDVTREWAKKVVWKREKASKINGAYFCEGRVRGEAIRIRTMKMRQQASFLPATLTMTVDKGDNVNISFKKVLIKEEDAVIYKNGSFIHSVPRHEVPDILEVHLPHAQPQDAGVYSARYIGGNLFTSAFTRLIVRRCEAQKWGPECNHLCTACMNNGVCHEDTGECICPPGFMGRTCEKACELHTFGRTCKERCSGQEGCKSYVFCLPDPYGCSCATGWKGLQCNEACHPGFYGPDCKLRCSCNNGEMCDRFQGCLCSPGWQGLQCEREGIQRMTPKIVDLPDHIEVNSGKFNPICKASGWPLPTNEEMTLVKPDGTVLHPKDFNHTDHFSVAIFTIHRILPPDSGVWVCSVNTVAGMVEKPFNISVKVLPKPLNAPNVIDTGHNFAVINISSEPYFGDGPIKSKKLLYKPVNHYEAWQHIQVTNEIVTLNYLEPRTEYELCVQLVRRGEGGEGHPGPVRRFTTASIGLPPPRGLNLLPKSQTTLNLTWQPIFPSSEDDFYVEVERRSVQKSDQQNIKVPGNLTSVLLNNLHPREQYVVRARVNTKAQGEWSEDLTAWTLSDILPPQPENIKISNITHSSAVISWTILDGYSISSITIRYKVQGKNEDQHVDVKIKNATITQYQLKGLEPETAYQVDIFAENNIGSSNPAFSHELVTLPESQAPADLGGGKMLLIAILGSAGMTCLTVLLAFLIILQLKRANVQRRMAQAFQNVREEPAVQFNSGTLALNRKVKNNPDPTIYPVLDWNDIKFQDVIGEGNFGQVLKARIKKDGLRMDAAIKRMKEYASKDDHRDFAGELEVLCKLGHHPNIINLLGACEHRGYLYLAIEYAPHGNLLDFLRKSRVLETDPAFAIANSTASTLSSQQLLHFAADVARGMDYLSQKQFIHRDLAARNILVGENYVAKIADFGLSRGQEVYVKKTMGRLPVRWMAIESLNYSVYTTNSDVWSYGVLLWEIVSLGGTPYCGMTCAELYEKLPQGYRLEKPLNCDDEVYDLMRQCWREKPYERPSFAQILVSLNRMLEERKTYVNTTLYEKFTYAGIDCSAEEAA
Chain of UniProt Q99683 (whole entry, looked up): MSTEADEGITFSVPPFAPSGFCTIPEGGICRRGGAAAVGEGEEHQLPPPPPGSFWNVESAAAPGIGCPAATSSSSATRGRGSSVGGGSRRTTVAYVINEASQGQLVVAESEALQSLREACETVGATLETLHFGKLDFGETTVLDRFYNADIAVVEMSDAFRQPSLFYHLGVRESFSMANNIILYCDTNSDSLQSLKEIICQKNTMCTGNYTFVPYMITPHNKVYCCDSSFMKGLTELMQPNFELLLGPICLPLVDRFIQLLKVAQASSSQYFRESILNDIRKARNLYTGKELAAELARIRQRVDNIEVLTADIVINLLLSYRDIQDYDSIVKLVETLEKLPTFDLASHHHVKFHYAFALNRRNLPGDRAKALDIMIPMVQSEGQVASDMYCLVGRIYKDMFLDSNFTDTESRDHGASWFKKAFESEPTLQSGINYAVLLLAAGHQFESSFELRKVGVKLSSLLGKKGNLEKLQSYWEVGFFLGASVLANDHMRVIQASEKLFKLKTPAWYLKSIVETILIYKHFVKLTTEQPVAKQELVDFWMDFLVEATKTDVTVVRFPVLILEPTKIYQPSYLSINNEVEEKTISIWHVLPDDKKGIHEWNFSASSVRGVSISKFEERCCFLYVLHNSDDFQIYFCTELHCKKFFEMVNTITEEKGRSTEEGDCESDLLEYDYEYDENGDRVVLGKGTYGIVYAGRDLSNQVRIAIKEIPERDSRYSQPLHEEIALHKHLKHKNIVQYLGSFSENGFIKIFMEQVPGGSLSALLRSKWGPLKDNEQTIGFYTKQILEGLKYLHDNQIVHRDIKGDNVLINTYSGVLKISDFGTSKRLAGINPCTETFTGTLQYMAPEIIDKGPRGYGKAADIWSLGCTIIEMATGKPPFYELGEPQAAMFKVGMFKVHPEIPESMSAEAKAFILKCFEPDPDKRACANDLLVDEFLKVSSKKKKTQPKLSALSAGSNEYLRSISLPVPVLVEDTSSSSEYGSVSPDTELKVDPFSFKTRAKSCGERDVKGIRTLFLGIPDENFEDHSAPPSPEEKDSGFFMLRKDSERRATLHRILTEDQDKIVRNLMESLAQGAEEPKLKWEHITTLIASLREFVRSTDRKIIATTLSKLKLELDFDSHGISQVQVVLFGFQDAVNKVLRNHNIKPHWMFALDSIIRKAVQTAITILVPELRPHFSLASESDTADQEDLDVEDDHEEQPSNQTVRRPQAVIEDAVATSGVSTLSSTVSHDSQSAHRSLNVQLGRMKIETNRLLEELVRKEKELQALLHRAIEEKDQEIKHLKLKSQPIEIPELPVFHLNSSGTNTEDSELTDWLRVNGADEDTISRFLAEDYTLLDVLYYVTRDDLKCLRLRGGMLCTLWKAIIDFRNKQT
Chain of UniProt P49137 (whole entry, looked up): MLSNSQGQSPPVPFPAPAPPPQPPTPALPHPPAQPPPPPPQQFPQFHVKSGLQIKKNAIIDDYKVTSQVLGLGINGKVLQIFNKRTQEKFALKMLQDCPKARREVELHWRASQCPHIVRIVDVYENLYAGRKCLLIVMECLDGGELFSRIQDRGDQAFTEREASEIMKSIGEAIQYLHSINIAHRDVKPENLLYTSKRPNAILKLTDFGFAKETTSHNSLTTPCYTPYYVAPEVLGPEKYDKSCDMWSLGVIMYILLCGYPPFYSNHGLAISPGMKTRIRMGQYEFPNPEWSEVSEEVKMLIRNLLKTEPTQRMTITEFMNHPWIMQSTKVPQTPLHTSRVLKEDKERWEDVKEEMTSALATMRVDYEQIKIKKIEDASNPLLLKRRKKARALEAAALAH

Set 1 — SMILES: O=C(O)c1ccc2c3c1cccc3c(=O)n1c3ccccc3nc21; observed: enzyme activity; action: inhibitor; concentration: 0.5 µM; baseline: control
For FRK (Homo sapiens, UniProt P42685): remaining activity read 97.6%.
For MAPK3 (Homo sapiens, UniProt P27361): remaining activity read 102%.
For MAP3K14 (Homo sapiens, UniProt Q99558): remaining activity read 94.8%.
For TEK (Homo sapiens, UniProt Q02763): remaining activity read 102%.
For MERTK (Homo sapiens, UniProt Q12866): remaining activity read 77.7%.
It gave 102% for remaining activity (GRK7 (Homo sapiens, UniProt Q8WTQ7)).
The remaining activity was 115% (NEK6 (Homo sapiens, UniProt Q9HC98)).
It gave 84.7% for remaining activity (FGFR1 (Homo sapiens, UniProt P11362)).
It gave 92.9% for remaining activity (FGFR3 (Homo sapiens, UniProt P22607)).
MAPKAPK2 (Homo sapiens, UniProt P49137) — remaining activity: 102%.
For CSNK1G3 (Homo sapiens, UniProt Q9Y6M4): remaining activity read 96.9%.
RPS6KA2 (Homo sapiens, UniProt Q15349) — remaining activity: 90.5%.
The remaining activity was 87.8% (NEK1 (Homo sapiens, UniProt Q96PY6)).
It gave 102% for remaining activity (MAP3K5 (Homo sapiens, UniProt Q99683)).

Set 2 — medium: plasma; route: oral
Structure (SMILES): COc1ccc(-c2c(Nc3ccccn3)[nH]c3c(C4=CCCCC4)c(-c4ccccc4)nn3c2=O)cc1
For LC-MS/MS; human; 200 mg twice daily, 24 h: “plasma concentration, geometric mean” read 12000 ng/mL.
The “plasma concentration, geometric mean” was 277 ng/mL (LC-MS/MS; human; 200 mg twice daily, 48 h, single dose).
It gave 4380 ng/mL for “plasma concentration, geometric mean” (human patients; 200 mg once daily, 0.5 h, cycle 1).
It gave 1600 ng/mL for “plasma concentration, geometric mean” (LC-MS/MS; human; 50 mg once daily, 6 h, cycle 1).

Set 3 — method: competition with immobilised ligand; concentration: 0.1 µM
Structure (SMILES): C[C@@H]1CN(c2cc(-c3n[nH]c4ccc(OC5(C)CC5)cc34)ncn2)C[C@H](C)O1
GAK (Homo sapiens, UniProt O14976); cell-free assay — remaining binding: 86%.
The remaining binding was 100% (PRKAA2 (Homo sapiens, UniProt P54646); cell-free assay).
It gave 86% for remaining binding (GRK2 (Homo sapiens, UniProt P25098); cell-free assay).
Tyrosine-protein kinase ABL1, phosphorylated (ABL1, Homo sapiens, UniProt P00519, E255K); binding — remaining binding: 66%.
It gave 100% for remaining binding (STK16 (Homo sapiens, UniProt O75716); cell-free assay).

Set 4 — cell line: mouse MPNST tumor cells; method: high-content nuclear imaging; refers to: cell number; concentration: 10 µM; time: 12 h; setting: mean of 2 replicates; baseline: plate mean; direction: higher = more cells
For `CC(=O)OCC1=C(C(=O)O)N2C(=O)[C@@H](NC(=O)Cc3cccs3)[C@H]2SC1`, the nuclei count was 2.01 z-score.
`CC(=O)NS(=O)(=O)c1ccc(N)cc1` has a nuclei count of 0.27 z-score.
The nuclei count of `O=C(Nc1ccc(S(=O)(=O)C(F)(F)F)cc1)C1=CCN(c2ncccc2C(F)(F)F)CC1` is reported as 1.87 z-score.
The nuclei count of `O=C(c1ccc(F)cc1)C1CCN(CCCCc2ccccc2)CC1` is reported as 0.356 z-score.
`COc1ccc(OC(F)(F)F)cc1CN[C@H]1CCCN[C@H]1c1ccccc1` gave a nuclei count of -4.74 z-score.

Set 5 — cell line: A-375; concentration: 100 µM; time: 18 h
The viability of `Oc1c(I)cc(I)c2cccnc12` is reported as 60.8%.
With `Cc1cn([C@H]2O[C@@H](CO)[C@H](O)[C@H]2F)c(=O)[nH]c1=O` the viability was 100%.
`CC1=NS(=O)(=O)c2cc(Cl)ccc2N1` gave a viability of 100%.
`COCCOC(=O)C1=C(C)NC(C)=C(C(=O)OC/C=C/c2ccccc2)C1c1cccc([N+](=O)[O-])c1` (centres unmarked) gave a viability of 51.9%.

For quick reference, copied from above (set 1):
For TEK (Homo sapiens, UniProt Q02763): remaining activity read 102%.
The remaining activity was 87.8% (NEK1 (Homo sapiens, UniProt Q96PY6)).
For CSNK1G3 (Homo sapiens, UniProt Q9Y6M4): remaining activity read 96.9%.
It gave 102% for remaining activity (GRK7 (Homo sapiens, UniProt Q8WTQ7)).
It gave 102% for remaining activity (MAP3K5 (Homo sapiens, UniProt Q99683)).
